Measured values gathered from unrelated publications.
Every numbered part comes from another study and shows a few of its results, in no order. Changes are numbered by the printed parent chain.

Block 1
Target: UBE2J2 UBC core domain (UniProt Q8N2K1)
Technique: yeast two-hybrid
Medium: yeast
Setting: mostly zero background
Relative to: not given
Reading: higher = stronger interaction
Measurement: lacZ reporter activity
B1: UBE4B RING domain (UniProt O95155); chain KNARAEIDYSDAPDEFRDPLMDTLMTDPVRLPSGTIMDRSIILRHLLNSPTDPFNRQTLTESMLEPVPELKEQIQAWMREKQNSDH
B2: RNF32 RING domain (UniProt Q9H0A6); chain VQALRRETHECSICLAPLSAAGGQRVGAGRRSREMALLSCSHVFHHACLLALEEFSVGDRPPFHACPLCRSCYQKKILEC
B3: SHPRH RING domain (UniProt Q149N8); chain KTSGGVNPEPCPICARQLGKQWAVLTCGHCFCNECISIIIEQYSVGSHRSSIKCAICRQTTSHKEISY
B4: RNF11 RING domain (UniProt Q9Y3C5); chain RDGSEKKIRECVICMMDFVYGDPIRFLPCMHIYHLDCIDDWLMRSFTCPSCMEPVDAALLSS
B5: TRIM68 RING domain (UniProt Q6AZZ1); chain LVEAIVEEVACPICMTFLREPMSIDCGHSFCHSCLSGLWEIPGESQNWGYTCPLCRAPVQPRNLRP
B6: RMND5B RING domain (UniProt Q96G75); chain MKCWYHSVFACPILRQQTSDSNPPIKLICGHVISRDALNKLINGGKLKCPYCPMEQNPADGK
B7: ARIH1 RING domain (UniProt Q9Y4X5); chain NTRSSAQDMPCQICYLNYPNSYFTGLECGHKFCMQCWSEYLTTKIMEEGMGQTISCPAHGCDILVDDNTVM
B8: RNF7 RING domain (UniProt Q9UBF6); chain AICRVQVMDACLRCQAENKQEDCVVVWGECNHSFHNCCMSLWVKQNNRCPLCQQDWVVQRIGK
Residues (chain): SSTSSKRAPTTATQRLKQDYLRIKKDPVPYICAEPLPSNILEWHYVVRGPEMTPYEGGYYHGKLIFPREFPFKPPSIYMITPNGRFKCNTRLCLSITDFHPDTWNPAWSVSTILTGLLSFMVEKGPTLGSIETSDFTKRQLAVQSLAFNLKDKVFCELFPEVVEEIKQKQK
B1 (UBE4B RING domain): 0
EIKDYKARLTCPCCNMRKKDAVLTKCFHVFCFECVKTRYDTRQRKCPKCNAAFGANDFHR (RNF20 RING domain (UniProt Q5VTR2)): 0
VPADASPDSKCPICLDRFDNVSYLDRCLHKFCFRCVQEWSKNKAECPLCKQPFDSIFHSV (TOPORS RING domain (UniProt Q9NS56)): 9550
B2 (RNF32 RING domain): 0
B3 (SHPRH RING domain): 0
B4 (RNF11 RING domain): 0
B5 (TRIM68 RING domain): 0
EDVLSKDAGECAICLEELQQGDTIARLPCLCIYHKGCIDEWFEVNRSCPEHPSD (ZNRF2 RING domain (UniProt Q8NHG8)): 0
B6 (RMND5B RING domain): 2970
B7 (ARIH1 RING domain): 0
B8 (RNF7 RING domain): 0

Block 2
Target: ABI1, truncated, D143A, DHFR fusion (Arabidopsis thaliana)
Technique: DHFR PCA, deep sequencing
Medium: yeast
Setting: methotrexate growth selection, single substitutions
Added: (+)-ABA 0.11 µM
Relative to: wild-type fitted maximum
Reading: higher = stronger binding
Measurement: relative binding score
Parent: PYL1, truncated, DHFR fusion (Arabidopsis thaliana); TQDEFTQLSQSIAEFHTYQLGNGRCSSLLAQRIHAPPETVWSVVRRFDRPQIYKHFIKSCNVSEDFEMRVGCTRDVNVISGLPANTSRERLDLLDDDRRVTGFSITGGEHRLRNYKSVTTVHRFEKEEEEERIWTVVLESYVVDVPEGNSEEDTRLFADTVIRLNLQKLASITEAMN
R123C: 17.7%
E131Q: 49%
D75T: 54%
Y18E: 0.269%
Q19I: 12.8%
W41P: -3.42%
R88F: 16.4%
V161M: 73.6%
N165Y: 10.9%
C60T: 6.42%
D95N: 3.4%
H16T: 3.11%
I33H: 5.38%
G107W: -0.621%
P36N: 14.8%
T17Q: 5.67%
K58L: -1.48%
V78Y: 91.1%
L112A: -5.02%
I57P: 0.475%
R74N: 21.1%
T17G: -2.37%

Block 3
Target: CCND3, cyclin fold, Cln2 fusion (human)
Technique: yeast growth competition, sequencing
Medium: yeast
Setting: weak parent motif
Relative to: not given
Reading: higher = stronger binding
Measurement: normalised enrichment score
Parent: CDT1 docking peptide (human); PPARRRLRLSVDE
R5A L7A: 0.138
L7A: 0.207
E13A: 0.168
L9F: -0.208
P1A: 0.0695
R5K: 0.264
S10A: 0.0496
P2A: 0.147
L9A: 0.119

Block 4
Target: CREB3, bZIP domain (human)
Technique: DHFR protein complementation
Medium: yeast
Setting: single substitutions, most at no-binding floor
Relative to: wild-type JUN-FOS pair
Reading: higher = stronger binding
Measurement: binding fitness
Parent: JUN, bZIP domain (human); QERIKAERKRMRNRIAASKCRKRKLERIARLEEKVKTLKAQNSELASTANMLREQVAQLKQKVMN; partner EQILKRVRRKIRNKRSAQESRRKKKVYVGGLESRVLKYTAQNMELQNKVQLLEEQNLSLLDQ
A29F: -1.45 natural log
K36T: -1.51 natural log
A46I: -1.45 natural log
Q41F: -1.5 natural log
A29I: -1.56 natural log
Q55A: -1.4 natural log
R30K: -1.36 natural log
K34F: -1.59 natural log
V35R: -1.48 natural log
E33F: -1.34 natural log
I28T: -1.36 natural log
E32I: -1.35 natural log
Q55T: -1.57 natural log
L38E: -1.55 natural log
I28N: -1.37 natural log
K39F: -1.38 natural log
E54V: -1.54 natural log
M51I: -1.26 natural log
T37G: -1.41 natural log
T48A: -1.47 natural log
E32S: -1.49 natural log
M51D: -1.53 natural log
M51W: -1.39 natural log
M51T: -1.27 natural log
S43E: -1.26 natural log

Block 5
Target: Histone acetyltransferase KAT6A, winged helix 2, GST fusion (KAT6A, Homo sapiens, UniProt Q92794, residues 85-181)
Technique: protein binding microarray
Form: double-stranded DNA, one strand shown
Medium: in vitro
Tested at: not given
Setting: 8-mer, flanks averaged, mean of 2 arrays, mostly near background
Relative to: not given
Reading: higher = stronger binding
Measurement: E-score
Residues (chain): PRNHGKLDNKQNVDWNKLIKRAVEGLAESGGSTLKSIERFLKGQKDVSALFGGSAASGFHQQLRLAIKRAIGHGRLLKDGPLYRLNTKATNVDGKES
GGCATAAC: 0.0123
GTCTGCTA: 0.115
ACGCCTCG: 0.0803
ACCTTTTG: -0.0274
ATGTTTAA: -0.121
ATGTCCTC: -0.0524
CATTTAAG: -0.0348
AACGAACT: 0.00417
CTCGCTCC: 0.208
CTTATTCA: -0.114
CAATTAAG: 0.0576
AGCCCAGA: 0.0804
ACCGCTCA: 0.0895
AGCGTTTA: -0.144
CCCCAGGG: 0.0495
ACGTACAT: -0.0959
GAGTATAA: 0.0491

Excerpt of the above (block 3):
R5A L7A: 0.138
L7A: 0.207
E13A: 0.168
L9F: -0.208
P1A: 0.0695
R5K: 0.264
S10A: 0.0496
P2A: 0.147
L9A: 0.119
